{"data": "Measured values gathered from unrelated publications", "note": "Numbered parts are unrelated; each lists some results of a single study.", "UniProt Q13283, sequence (whole entry, looked up)": "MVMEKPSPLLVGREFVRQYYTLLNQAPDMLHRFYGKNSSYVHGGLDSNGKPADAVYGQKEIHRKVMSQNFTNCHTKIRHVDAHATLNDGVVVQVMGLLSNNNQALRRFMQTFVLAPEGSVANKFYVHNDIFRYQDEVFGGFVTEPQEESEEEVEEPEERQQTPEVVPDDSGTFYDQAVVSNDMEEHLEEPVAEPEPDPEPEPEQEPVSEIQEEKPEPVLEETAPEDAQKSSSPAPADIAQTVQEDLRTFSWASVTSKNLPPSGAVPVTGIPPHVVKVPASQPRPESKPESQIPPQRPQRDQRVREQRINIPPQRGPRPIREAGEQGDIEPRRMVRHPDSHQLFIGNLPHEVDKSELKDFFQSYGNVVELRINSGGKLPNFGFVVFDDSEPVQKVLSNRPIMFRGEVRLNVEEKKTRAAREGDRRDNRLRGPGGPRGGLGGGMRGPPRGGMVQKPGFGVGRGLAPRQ"}
{"data": "Study 1", "target": "Prothrombin, mature alpha-thrombin (F2, Homo sapiens, UniProt P00734)", "technique": "aptamer microarray, sandwich", "form": "DNA with 2'F-ANA", "sample": "in vitro", "concentration": "200 nM", "setting": "whole 15-mer aptamer, many near background", "with": "Cy3 exosite-II aptamer, 400 nM", "direction": "higher = stronger binding"}
{"Strand": "GGTTGGTGTGGTTGG (2'F-ANA at 1 5 6 9 11 12 13 14 15)", "mean fluorescence intensity [a.u.]": 58.8}
{"Strand": "GGTTGGTGTGGTTGG (2'F-ANA at 1 2 3 4 6 7 8 10 11)", "mean fluorescence intensity [a.u.]": 82.4}
{"Strand": "GGTTGGTGTGGTTGG (2'F-ANA at 5 6 10 11 13 14 15)", "mean fluorescence intensity [a.u.]": 66.2}
{"data": "Study 2", "target": "Histone acetyltransferase KAT6A, winged helix 1, GST fusion (KAT6A, Homo sapiens, UniProt Q92794, residues 1-85)", "technique": "protein binding microarray", "form": "double-stranded DNA, one strand shown", "sample": "in vitro", "concentration": "not given", "setting": "8-mer, flanks averaged, mean of 2 arrays, mostly near background", "relative to": "not given", "direction": "higher = stronger binding", "Residues (chain)": "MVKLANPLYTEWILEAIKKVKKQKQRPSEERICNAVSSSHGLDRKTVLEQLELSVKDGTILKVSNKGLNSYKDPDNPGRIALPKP"}
{"Strand": "CTTTGGGA", "E-score": -0.203}
{"Strand": "GGCGCATA", "E-score": 0.313}
{"Strand": "CCCCAACA", "E-score": -0.255}
{"data": "Mixed results", "Fmr1 C-terminal low-complexity region": "Fragile X messenger ribonucleoprotein 1, C-terminal low-complexity region (Fmr1, Mus musculus, UniProt P35922)"}
{"Molecule": "GGGAGUUCUACAGUCCGACGAUCCUGUGCUACACAUCGUAUGUACCGAAUCGGCCCCCCCGGGCCCCCCCGGGCCCCCCCGGGGAAAGUAUUAUGUUACGCCGUUCGGAUCUGUGGAAUUCUCGGGUGUCAAGG", "target": "Ras GTPase-activating protein-binding protein 1, RRM domain (G3BP1, Homo sapiens, UniProt Q13283)", "assay": "RNA Bind-n-Seq", "system": "RNA, in vitro", "setting": "1 µM, whole 134-nt RNA, ends assumed, with: 150 mM KCl", "scale": "relative to: input library, higher = stronger binding", "endpoint": "log2 enrichment", "value": -0.698}
{"Molecule": "PhoQ, residues 284 288 289 292 302 303 GASLAW", "target": "PhoP, residues 12 14 15 18 19 FWNTL (Escherichia coli, UniProt P23836)", "assay": "Sort-seq, refers to: YFP reporter", "system": "E. coli", "setting": "PhoQ-PhoP variant library, with: 10 µM Mg2+", "scale": "relative to: high Mg2+ state, higher = stronger signaling", "endpoint": "fold induction", "value": 1.48}
{"Molecule": "GGGAGUUCUACAGUCCGACGAUCCACAGACAACACGCACCCACACAGACACAGAGGGAAGGGGUUGGGAUGGGGACAGGGUACACAGCAGGGCGGGGUAGGACCCCAGCCCCUUGGAAUUCUCGGGUGUCAAGG (7-deaza-guanosine replaces G)", "target": "Fmr1 C-terminal low-complexity region", "assay": "RNA Bind-n-Seq", "system": "RNA, in vitro", "setting": "200 nM, whole 134-nt RNA, ends assumed, with: 150 mM LiCl", "scale": "relative to: input library, higher = stronger binding", "endpoint": "log2 enrichment", "value": 0.459}
{"Molecule": "GGGAGUUCUACAGUCCGACGAUCUGGCCCUGGUGGCAUGCGGGGAGGAAGAGGUGGCCUUAUGGAUCGUGGUGGUCCCGGUGGAAUGUUCAGAGGUGGCCGUGGUGGAGACAGUGGAAUUCUCGGGUGUCAAGG (7-deaza-guanosine replaces G)", "target": "Fmr1 C-terminal low-complexity region", "assay": "RNA Bind-n-Seq", "system": "RNA, in vitro", "setting": "200 nM, whole 134-nt RNA, ends assumed, with: 150 mM LiCl", "scale": "relative to: input library, higher = stronger binding", "endpoint": "log2 enrichment", "value": 0.561}
{"note": "Excerpt of the above (study 1):"}
{"Strand": "GGTTGGTGTGGTTGG (2'F-ANA at 1 2 3 4 6 7 8 10 11)", "mean fluorescence intensity [a.u.]": 82.4}
{"Strand": "GGTTGGTGTGGTTGG (2'F-ANA at 5 6 10 11 13 14 15)", "mean fluorescence intensity [a.u.]": 66.2}
